Assay results pooled from the literature.
Protocols differ between the studies behind these lines. Values joined by “and” are separate records of one study, mostly repeats; a detail may differ. Numbers after ± are the reported error.

Under “IC50 fold change”, `CN1CCN(S(=O)(=O)c2cc([N+](=O)[O-])ccc2N(CCOS(C)(=O)=O)CCOS(C)(=O)=O)CC1` is recorded as 280 (sample DA T-ALL PDX cells; cell viability; ex vivo; 48 h, added: AKR1C3 inhibitor; reference: with inhibitor over alone).
With `CC(C)N1CCC(NC2CCN(c3cccc(-c4cc5cc(F)ccc5[nH]4)c3)CC2)CC1` the CC50 was 6.21 µM (NCI-H23).
`COc1c(CCC[P+](c2ccccc2)(c2ccccc2)c2ccccc2)cc2c(c1OC)OCO2.[I-]` gave a GI50 of -5.66 log M (NCI-H23; SRB).
With `CCC(=O)CCCCC[C@@H]1NC(=O)[C@H]2CCCCN2C(=O)[C@H]([C@@H](C)CC)NC(=O)[C@H](Cc2cn(OC)c3ccccc23)NC1=O` the viability was 0.653% (HBL-1; 1 µM, 120 h).
For `Oc1ccc(C(c2ccc(O)cc2)(C(F)(F)F)C(F)(F)F)cc1`, “S phase cells” read 11 ± 4.92% (HepG2 spheroids; Hoechst flow cytometry; 0.10 µM, 96 h).
Under “pathway fold enrichment”, `Nc1ncnc2c1ncn2[C@@H]1O[C@@H]2COP(=O)(O)O[C@H]3[C@@H](O)[C@H](n4cnc5c(=O)[nH]cnc54)O[C@@H]3COP(=O)(O)O[C@H]2[C@H]1O` is recorded as 10.4 (HFF-1; RNA sequencing, refers to: Reactome R-HSA-3560782; downregulated pathway; reference: Zika virus alone).
`O=c1cc(-c2ccc(O)cc2)oc2cc(O)cc(O)c12`: “neurite branch number” 1.8 to 2.1 (induced SH-SY5Y Aβ-GFP cells; 5 µM).
`COc1c(C)c2c(c(O)c1C/C=C(\C)CCC(=O)O)C(=O)OC2` has an IC50 of 1950 nM (UO-31; cell proliferation; kidney cancer).
For `C[C@@H]1O[C@@H](O[C@@H]2C=C3CC[C@@H]4[C@H](CC[C@]5(C)[C@@H](c6ccc(=O)oc6)CC[C@]45O)[C@@]3(C)CC2)[C@H](O)[C@H](O)[C@H]1O`, the activity score was 14.1 (human iPSC-derived cardiomyocytes; MyBP-C/MYH ratio, plate-normalised SD score; concentration not given, primary screen; direction not given).
For `CC(C)=CCC/C(C)=C/CCn1cc(C2CC2(P(=O)([O-])[O-])P(=O)([O-])[O-])nn1.[Na+].[Na+].[Na+].[Na+]` (centres unmarked), “inhibition of geranylgeranylation” read “inactive” (MM.1S; refers to: unmodified Rap1a; concentration not given, 48 h).
The Hill slope of `CS(=O)(=O)c1ccc(-c2nnc(/C=C/c3nnc(-c4ccc(C#N)cc4)o3)n2-c2ccccc2Cl)nc1` is reported as -2.21 (Apc Q1405X mutant organoids; organoid viability, AlamarBlue; mouse small intestinal organoids; 6 days, Tnks genotype Tnks-/-).
`CC[C@H](C)[C@H](NC(=O)[C@H](CCCCN)NC(=O)[C@H](CCCCN)NC(=O)[C@@H](NC(=O)[C@@H](NC(=O)[C@H](CC(=O)O)NC(=O)[C@H](Cc1ccccc1)NC(=O)[C@H](CC(C)C)NC(=O)CN)[C@@H](C)CC)[C@@H](C)CC)C(=O)N[C@@H](C)C(=O)N[C@@H](CCC(=O)O)C(=O)N[C@@H](CO)C(=O)N[C@@H](Cc1ccccc1)C(=O)N[C@@H](CS)C(N)=O` has an EC50 of 98 µM (human red blood cells; pH 7.4; reference: Triton X-100).
`Cc1nn(-c2nc3c(F)cc(F)cc3s2)c(O)c1C(c1ccc(C(F)(F)F)cc1)c1c(C)nn(-c2nc3c(F)cc(F)cc3s2)c1O` has a viability of 7.49% and 7.47% and 7.86% and 13.7% and 7.71% (RAW-ISG; CCK-8; 100 µM).
`CC1=C(O)C(=O)C=C2C1=CC=C1[C@@]2(C)CC[C@@]2(C)[C@@H]3C[C@](C)(C(=O)O)CC[C@]3(C)CC[C@]12C` has an optical density of 1.11 a.u. and 1.15 a.u. and 0.997 a.u. and 1.01 a.u. and 0.922 a.u. (HepG2; cell viability, CCK-8; 1 µM; higher = more viable cells).
`C/C=C(/C)C(=O)O[C@H]1C(C)=C2[C@H]([C@@H]1OC(=O)CCCCCCC)[C@@](C)(OC(C)=O)C[C@H](OC(=O)CCC)[C@@]1(O)[C@H]2OC(=O)[C@@]1(C)O` — result for “log2 fold change”: 2.65 (HEK293T; RNA-seq, refers to: SLC1A4 mRNA; 10 µM, 6 h; reference: vehicle).
`COc1cc([C@@H]2c3cc4c(cc3C[C@H]3COC(=O)[C@@H]32)OCO4)cc(OC)c1OC`: viability “decreased” (neuroblastoma M2, MYCN overexpressing; SRB; concentration not given, 48 h, added: doxycycline).
The CC50 of `CN1CCN(C2(CNC3CCN(c4cccc(-c5cc6cc(F)ccc6[nH]5)c4)CC3)CCC2)CC1` is reported as 6.06 µM (RXF 393).
`Cn1cncc1C1=CN(c2ncnc3[nH]cnc23)CCS1` gave a CC50 of greater than 200 µM (HCC 2998; colon cancer).
`CO[C@H]1C[C@H](O[C@H]2CC[C@]3(C)[C@H]4CC[C@]5(C)[C@@H](C6=CC(=O)OC6)CC[C@]5(O)[C@@H]4CC[C@]3(O)C2)O[C@H](C)[C@H]1O[C@@H]1O[C@H](CO)[C@@H](O)[C@H](O)[C@H]1O` gave an EC50 of 0.096 µM (PH5CH8; steatosis inhibition, high-content imaging; 72 h, added: sodium oleate 1 mM).
`CC(=O)O[C@H]1CC[C@@]2(C)[C@H](CC[C@@H]3[C@@H]2CC[C@]2(C)[C@@H](C4=CC(=O)OC4)[C@@H](OC(C)=O)C[C@]32O)C1` gave an activity score of 6.2 (human iPSC-derived cardiomyocytes; MyBP-C/MYH ratio, plate-normalised SD score; concentration not given, primary screen; direction not given).
For `CC(C)[C@@H](CS(=O)(=O)C(C)C)N1C(=O)[C@@](C)(CC(=O)O)C[C@H](c2cccc(Cl)c2)[C@H]1c1ccc(Cl)cc1`, cell death read “increased” (cultures, short-term, GBM PDX, MDM2-amplified; YOYO-3 live-cell imaging; 30 nM, 72 h).
The inhibition of `C[CH2][Hg][S]c1ccccc1C(=O)[O-].[Na+]` is reported as 94.1% (BT-16; cell viability, MTT; 10 µM, 72 h).
For `CC[C@H](C)[C@H](NC(=O)[C@H](CCCCN)NC(=O)[C@H](CCCCN)NC(=O)[C@H](Cc1ccccc1)NC(=O)[C@H](CC(C)C)NC(=O)[C@H](CCCCN)NC(=O)[C@H](Cc1c[nH]c2ccccc12)NC(=O)[C@@H](N)CCCCN)C(=O)N[C@@H](Cc1ccccc1)C(=O)N[C@@H](CCCCN)C(=O)N[C@@H](CCCNC(=N)N)C(=O)N[C@H](C(=O)N[C@H](C(=O)N[C@@H](CCC(N)=O)C(=O)N[C@@H](CCCNC(=N)N)C(=O)N[C@H](C(=O)N[C@@H](CCCCN)C(=O)N[C@@H](CC(=O)O)C(=O)N[C@@H](Cc1ccccc1)C(=O)N[C@@H](CC(C)C)C(=O)N[C@@H](CCCNC(=N)N)C(=O)N[C@@H](CS)C(N)=O)[C@@H](C)CC)C(C)C)[C@@H](C)CC`, the EC50 was 13 µM (human red blood cells; pH 5.5; reference: Triton X-100).
The ATP level of `CN[C@@H]1C[C@H]2O[C@@](C)([C@@H]1OC)n1c3ccccc3c3c4c(c5c6ccccc6n2c5c31)C(=O)NC4` is reported as 19.7% (iCell Cardiomyocytes (hiPSC-derived); CellTiter-Glo; concentration not given, 24 h; reference: control).
`CC[C@H](C)[C@H](NC(=O)CN)C(=O)NCC(=O)N[C@@H](C)C(=O)N[C@H](C(=O)N[C@@H](CC(C)C)C(=O)N[C@@H](CCCCN)C(=O)N[C@H](C(=O)N[C@@H](CC(C)C)C(=O)N[C@H](C(=O)N[C@H](C(=O)NCC(=O)N[C@@H](CC(C)C)C(=O)N1CCC[C@H]1C(=O)N[C@@H](C)C(=O)N[C@@H](CC(C)C)C(=O)N[C@H](C(=O)N[C@@H](CO)C(=O)N[C@@H](Cc1c[nH]c2ccccc12)C(=O)N[C@H](C(=O)N[C@@H](CCCCN)C(=O)N[C@@H](CCCNC(=N)N)C(=O)N[C@@H](CCCCN)C(=O)N[C@@H](CCCNC(=N)N)C(=O)N[C@@H](CCC(N)=O)C(=O)N[C@@H](CCC(N)=O)C(=O)N[C@@H](CS)C(N)=O)[C@@H](C)CC)[C@@H](C)CC)[C@@H](C)O)[C@@H](C)O)C(C)C)C(C)C` gave an EC50 of 5 µM (human red blood cells; pH 5.5; reference: Triton X-100).
With `CN1C(=O)[C@@]23C[C@]4([C@]56C[C@@]78SS[C@@](CO)(C(=O)N7[C@H]5Nc5ccccc56)N(C)C8=O)c5ccccc5N[C@@H]4N2C(=O)[C@]1(CO)SS3` the viability was 0.616% (HBL-1; 0.1 µM, 120 h).
`O=S(=O)(c1ccc(O)cc1)c1ccc(O)cc1`: “G2 phase cells” 20.5 ± 6.92% (HepG2 spheroids; Hoechst flow cytometry; 0.1 µM, 24 h).
`COCCCn1c(N)c(C(=O)NC2CCCC2)c2nc3ccccc3nc21` gave a viability of 128% (HBL-1; 0.1 µM, 120 h).
The activity score of `CC(=O)O[C@H]1CC[C@]2(C=O)[C@H]3CC[C@]4(C)[C@@H](C5=CC(=O)OC5)CC[C@]4(O)[C@@H]3CC[C@]2(O)C1` is reported as 7.7 (human iPSC-derived cardiomyocytes; MyBP-C/MYH ratio, plate-normalised SD score; concentration not given, primary screen; direction not given).
The fold change of `O=C1N(Cc2ccccc2Cl)c2ccccc2C12NN=C(c1ccccc1)S2` (centres unmarked) is reported as 1.64 (MDA-MB-468; gene expression array, refers to: PIGY mRNA; 10 µM, 12 h; reference: untreated, down).
The methylation reduction of `COc1ccc2c(c1)[nH]c1c(C)nccc12` is reported as 2.06% (DU-145; bisulfite pyrosequencing, refers to: RASSF1A promoter CpG site 15; concentration not given; reference: vehicle).
For `Nc1ncc(-c2nc(N3CCOCC3)nc(N3CCOCC3)n2)c(C(F)F)n1`, the GI50 was 728 nM (DLD-1; 72 h).
With `CC[C@H](C)[C@H](N)C(=O)N[C@@H](CC(C)C)C(=O)NCC(=O)N[C@@H](CCCCN)C(=O)N[C@H](C(=O)N[C@@H](Cc1c[nH]c2ccccc12)C(=O)N[C@@H](CCC(=O)O)C(=O)NCC(=O)N[C@H](C(=O)N[C@@H](CCCCN)C(=O)N[C@@H](CO)C(=O)N[C@@H](CC(C)C)C(=O)N[C@@H](Cc1ccccc1)C(=O)N[C@@H](CS)C(N)=O)[C@@H](C)CC)[C@@H](C)CC` the EC50 was greater than 100 µM (human red blood cells; pH 5.5; reference: Triton X-100).
For `COc1cc(CCC[P+](c2ccccc2)(c2ccccc2)c2ccccc2)c(OC)c2c1OCO2.[I-]`, the TGI was -5.07 log M (RXF 393; SRB).
For `O=C([O-])CN1CCN(CC(=O)[O-])CCN(CC(=O)NCC2CCC(C(=O)N[C@@H](Cc3ccc4ccccc4c3)C(=O)NCCCC[C@H](NC(=O)N[C@@H](CCC(=O)O)C(=O)O)C(=O)O)CC2)CCN(CC(=O)[O-])CC1.[177Lu+3]` (some centres unmarked), “uptake inhibition by 2-PMPA” read 90% (LNCaP (PSMA-positive); concentration not given, added: 2-PMPA).
For `N.N.[Cl][Pt][Cl]`, the EC50 was 26 ± 10.8 µM (human foreskin fibroblasts CRL-4001; viability, MTT; 72 h).
`CCN(CC)c1ccc(C=NNC(=O)CSc2nc3ccccc3c(=O)n2Cc2ccc(S(N)(=O)=O)cc2)c(O)c1` gave a CC50 of greater than 100 µM (LOX IMVI; NCI five-dose screen).
With `Nc1nc(N)nc(NC2CC2)n1` the activity score was 3.1 (human iPSC-derived cardiomyocytes; MyBP-C/MYH ratio, plate-normalised SD score; concentration not given, primary screen; direction not given).

For quick reference, copied from above:
`COc1c(CCC[P+](c2ccccc2)(c2ccccc2)c2ccccc2)cc2c(c1OC)OCO2.[I-]` gave a GI50 of -5.66 log M (NCI-H23; SRB).
For `N.N.[Cl][Pt][Cl]`, the EC50 was 26 ± 10.8 µM (human foreskin fibroblasts CRL-4001; viability, MTT; 72 h).
